Results gathered from unrelated publications.
Every numbered part comes from another study and shows a few of its results, in no order.

Block 1
Target: Sal-like protein 4, full length isoform A (SALL4, Homo sapiens, UniProt Q9UJQ4, residues 1-1053)
Sequence of UniProt Q9UJQ4 (whole entry, looked up): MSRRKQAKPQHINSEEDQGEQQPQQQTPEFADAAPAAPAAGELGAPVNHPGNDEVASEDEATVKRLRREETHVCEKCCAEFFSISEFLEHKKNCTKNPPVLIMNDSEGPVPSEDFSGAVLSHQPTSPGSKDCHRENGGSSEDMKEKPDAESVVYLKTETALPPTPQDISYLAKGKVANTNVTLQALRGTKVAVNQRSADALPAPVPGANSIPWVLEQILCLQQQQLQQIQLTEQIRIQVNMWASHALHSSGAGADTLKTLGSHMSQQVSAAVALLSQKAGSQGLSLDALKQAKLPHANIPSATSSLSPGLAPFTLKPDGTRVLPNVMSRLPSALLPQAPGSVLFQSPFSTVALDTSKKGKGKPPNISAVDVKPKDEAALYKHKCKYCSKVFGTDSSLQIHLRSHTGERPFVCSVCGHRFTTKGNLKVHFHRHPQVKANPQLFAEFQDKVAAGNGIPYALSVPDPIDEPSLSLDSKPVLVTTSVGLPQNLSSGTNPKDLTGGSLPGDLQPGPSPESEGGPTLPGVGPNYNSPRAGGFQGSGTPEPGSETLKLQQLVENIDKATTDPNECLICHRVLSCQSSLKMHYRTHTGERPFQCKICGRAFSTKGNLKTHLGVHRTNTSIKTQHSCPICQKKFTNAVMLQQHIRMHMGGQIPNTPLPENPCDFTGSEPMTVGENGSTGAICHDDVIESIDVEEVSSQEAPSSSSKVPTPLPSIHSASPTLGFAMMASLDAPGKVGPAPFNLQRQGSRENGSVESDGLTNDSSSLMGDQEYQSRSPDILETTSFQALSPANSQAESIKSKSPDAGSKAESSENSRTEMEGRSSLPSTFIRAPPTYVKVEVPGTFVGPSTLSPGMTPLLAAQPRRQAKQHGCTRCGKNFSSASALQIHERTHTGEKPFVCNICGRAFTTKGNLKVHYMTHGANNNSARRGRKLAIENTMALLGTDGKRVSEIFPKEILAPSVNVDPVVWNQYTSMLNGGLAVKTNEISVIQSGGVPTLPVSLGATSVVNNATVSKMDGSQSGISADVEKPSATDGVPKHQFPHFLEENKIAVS
Method: universal PBM
Form: double-stranded DNA, one strand shown
Sample: in vitro
Concentration: 600 nM
Setting: 8-mer, flanks averaged, mean of replicates
Reading: higher = stronger binding
Sequence | E-score
CCGGTGGA | -0.229
GTTTTATA | 0.3
CTTGGTGA | -0.0328
CTCCTACA | 0.0183
AATCTGAT | 0.132
GGCAGCAC | -0.201
ATAGAAGC | 0.188
CAGGGCGC | -0.32
AGAACTGC | -0.156
GAACAGCA | 0.0666
CTTAAGGA | -0.0423
CTTTACGA | 0.118

Block 2
Target: RNA binding protein fox-1 homolog 2, RRM domain, GST-SBP tag (RBFOX2, Homo sapiens, UniProt O43251-10, residues 100-194)
Method: RNA Bind-n-Seq
Form: RNA
Sample: in vitro
Concentration: 365 nM
Setting: natural RNA segment, single round, ends assumed
Baseline: no-protein control
Reading: higher = stronger binding
Shared flanks, not repeated: GGGAGUUCUACAGUCCGACGAUC … UGGAAUUCUCGGGUGCCAA
Residues (chain): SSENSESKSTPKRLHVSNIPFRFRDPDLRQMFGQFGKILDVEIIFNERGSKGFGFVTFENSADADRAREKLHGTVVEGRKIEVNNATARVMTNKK
Sequence | RBNS enrichment (R)
CAAUGUGAGUCCCAGAGCCCGCUUUUGUUCUUCCCCACAAUUCCAUUACUAAGAAACACAUCAAAUAAACUGACUUUUUCCCCCCAAUAAAAGCUCUUCUUUUUUAAUAU | 0.86
GAAGUGUACGCCUAUUAUAUUCCCAAGGCAUUUUUGUGGGGAGGAACAGUGCUGCUUGUUGGCCUUUCCAUAUUCCCUCAUACAAAAAUGCUAAAAUCUAUUCGCAAGAG | 0.269
GUCACCAGUGAGCCAUAUUUAUUAUUUCUAGAGAAAUCACGAACUGCUUUCUGUAAUUGCACUGUGGAUAAAUGUUCCGAGAGUCUCCAUUGUUGUACAGGAUCUUCAGU | 0.79
UUUUUCUCCCUCUUAAUAUUGAAGAAAUUCCCACAUUUCUCAUUUGGUAAUGGUGUUGUGGCCUCAGAUUUCUUCUAGUAUUUGCUUCUGAUGAAUGAUUAUGGUCUAUA | 0.301
ACCAAGAGACAGCAGACAGCCUGCCUCCUGGGGCGUGCCGGCACCUGCUUCAGCUACUGCCUCCUGUAUGCAUGAGCCGGAUGCUGGGCAGGAUCCCUGCCUACGCCCGG | 3.64
CCCUUAACCCUUGCCUCUAUUACCUAAGCUUAGUAAGUAGUUUUCUUAAUAUUGUCCAAUGUUUGGUGUUAUCUGCAUUGUUUUUUGUUUUUUUAAUUGUGGUUGUUCUG | 1.76
CCUGCCUGGCCCCACCACCUGGAGUGUUUCAGAGAAUCACUUGGUGGCAGUCACGUGGCUGACUCCUGUCUUGGGCCAUAGGCCUAGAUCCCUACCCAUGGGAAUGCAGA | 0.229
AUCAGAAGACAUUGGAAAGAGGGAUUCCCUUUGGUGUUUGGUCUUCUACUUAGAAAAACCUAUUGCAGUUAGUUUAUCUUGUAGUAUUCAUCUUUGUAUUCUGAAGAUAA | 0.371
GCGUGUUUGCCUGUCCUGAGGUGCCAGGCCUGCAGAGAGUGGACUCUGGUGGGUGCUUCCUUCCUCUGCUGCCUAACUGAGUCUGGCACAGGCUUUCUGCCUUGCCAUGA | 0.362
AGCCCCUGUCAUGGUGUCCAGACAGAGCCCUGUGAGGCUGGGUCCAAUUGUGGCACUUGGGGCACCUUGCUCCUCCUUCUGCUGCUGCCCCCACCUCUGCUGCCUCCCUC | 0.377

Block 3
Target: Myc proto-oncogene protein, bHLH-zipper, MAX partner unstated (MYC, Homo sapiens, UniProt P01106, residues 368-449)
Sequence of UniProt P01106 (368-449, looked up): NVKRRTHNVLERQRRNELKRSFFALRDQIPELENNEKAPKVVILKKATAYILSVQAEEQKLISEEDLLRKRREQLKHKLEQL
Method: protein-binding microarray
Form: double-stranded DNA, one strand shown
Sample: in vitro
Concentration: not given
Setting: k-mer, scored over probes, only values ≥0.25
Reading: higher = stronger binding
Sequence | E-score
ACGCCACG | 0.425
AATGCGTG | 0.372
GCACCTGC | 0.294
AGCATGCA | 0.401
AGGCGCAC | 0.289
CACGTTGC | 0.437
CCGTGCGC | 0.286
ACGAGGCT | 0.262
CGTGCTGA | 0.36
ATGCGTGG | 0.421
CGTGTAAG | 0.302
AAGACACG | 0.336

Other studies, line by line
Substance | target | assay | system | conditions | how to read | quantity | result
PhoQ, residues 284 288 289 292 302 303 NLSRDF | PhoP, residues 12 14 15 18 19 LHHSG (Escherichia coli, UniProt P23836) | Sort-seq, item: YFP reporter | E. coli | PhoQ-PhoP variant library, added: 10 µM Mg2+ | baseline: high Mg2+ state, higher = stronger signaling | fold induction | 0.806

Some of these lines once more (block 3):
Sequence | E-score
GCACCTGC | 0.294
AGCATGCA | 0.401
AGGCGCAC | 0.289
